Results from different studies.
Numbered parts are unrelated; each lists some results of a single study.
UniProt P10721, sequence (whole entry, unmodified, looked up): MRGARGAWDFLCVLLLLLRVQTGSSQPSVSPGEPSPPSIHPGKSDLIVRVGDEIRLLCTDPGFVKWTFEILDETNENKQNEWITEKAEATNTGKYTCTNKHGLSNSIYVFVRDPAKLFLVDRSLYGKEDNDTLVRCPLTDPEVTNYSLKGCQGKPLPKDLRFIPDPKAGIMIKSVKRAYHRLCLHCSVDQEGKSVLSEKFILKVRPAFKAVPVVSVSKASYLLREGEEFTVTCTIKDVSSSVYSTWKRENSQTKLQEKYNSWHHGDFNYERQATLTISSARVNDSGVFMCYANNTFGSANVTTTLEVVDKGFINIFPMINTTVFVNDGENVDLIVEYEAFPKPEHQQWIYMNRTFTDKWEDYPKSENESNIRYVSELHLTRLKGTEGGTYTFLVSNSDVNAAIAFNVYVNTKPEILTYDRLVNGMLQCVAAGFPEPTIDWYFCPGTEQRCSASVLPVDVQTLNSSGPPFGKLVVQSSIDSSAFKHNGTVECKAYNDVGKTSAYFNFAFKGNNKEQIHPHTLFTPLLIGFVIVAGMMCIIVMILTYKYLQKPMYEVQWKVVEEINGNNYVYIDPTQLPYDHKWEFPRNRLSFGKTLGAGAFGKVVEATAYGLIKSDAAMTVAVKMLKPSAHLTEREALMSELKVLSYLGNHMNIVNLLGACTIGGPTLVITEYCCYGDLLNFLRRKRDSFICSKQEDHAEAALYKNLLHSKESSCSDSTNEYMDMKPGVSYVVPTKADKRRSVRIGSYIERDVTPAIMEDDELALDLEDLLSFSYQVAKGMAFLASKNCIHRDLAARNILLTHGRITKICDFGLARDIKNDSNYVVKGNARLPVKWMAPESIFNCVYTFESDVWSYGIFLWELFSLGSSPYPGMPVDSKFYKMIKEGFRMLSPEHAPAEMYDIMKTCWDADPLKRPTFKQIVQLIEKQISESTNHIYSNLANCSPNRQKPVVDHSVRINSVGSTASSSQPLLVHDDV
UniProt P29597, sequence (whole entry, looked up): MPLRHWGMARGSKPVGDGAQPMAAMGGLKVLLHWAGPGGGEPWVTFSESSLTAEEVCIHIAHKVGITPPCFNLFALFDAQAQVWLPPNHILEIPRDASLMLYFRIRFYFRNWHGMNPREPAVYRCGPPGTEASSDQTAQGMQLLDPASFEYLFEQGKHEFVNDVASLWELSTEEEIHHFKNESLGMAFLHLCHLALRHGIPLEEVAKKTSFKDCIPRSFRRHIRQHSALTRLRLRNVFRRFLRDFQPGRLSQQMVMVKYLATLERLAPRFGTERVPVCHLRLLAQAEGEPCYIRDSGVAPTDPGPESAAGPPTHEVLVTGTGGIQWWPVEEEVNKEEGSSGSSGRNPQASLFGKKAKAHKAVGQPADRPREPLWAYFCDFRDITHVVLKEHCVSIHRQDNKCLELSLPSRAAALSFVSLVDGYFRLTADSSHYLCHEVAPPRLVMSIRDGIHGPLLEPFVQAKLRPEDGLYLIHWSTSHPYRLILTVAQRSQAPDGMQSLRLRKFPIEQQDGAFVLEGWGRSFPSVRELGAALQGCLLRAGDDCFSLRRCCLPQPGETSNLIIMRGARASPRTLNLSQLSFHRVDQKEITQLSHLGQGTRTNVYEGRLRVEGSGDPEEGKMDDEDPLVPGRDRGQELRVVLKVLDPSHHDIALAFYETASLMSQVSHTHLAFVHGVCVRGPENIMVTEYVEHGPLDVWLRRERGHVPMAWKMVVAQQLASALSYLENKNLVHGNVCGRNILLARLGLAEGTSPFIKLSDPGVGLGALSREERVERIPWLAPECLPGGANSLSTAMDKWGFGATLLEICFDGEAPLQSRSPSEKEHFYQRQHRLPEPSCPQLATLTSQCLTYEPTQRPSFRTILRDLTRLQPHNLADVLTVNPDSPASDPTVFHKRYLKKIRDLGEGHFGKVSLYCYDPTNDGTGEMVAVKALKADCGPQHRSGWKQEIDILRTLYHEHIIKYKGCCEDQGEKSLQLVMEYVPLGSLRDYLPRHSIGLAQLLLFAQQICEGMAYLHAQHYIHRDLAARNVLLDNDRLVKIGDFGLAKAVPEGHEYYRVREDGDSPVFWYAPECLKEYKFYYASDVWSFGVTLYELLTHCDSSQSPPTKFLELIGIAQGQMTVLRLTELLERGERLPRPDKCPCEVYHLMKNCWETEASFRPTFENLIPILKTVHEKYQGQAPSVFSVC
UniProt Q9Y5S2, sequence (whole entry, looked up): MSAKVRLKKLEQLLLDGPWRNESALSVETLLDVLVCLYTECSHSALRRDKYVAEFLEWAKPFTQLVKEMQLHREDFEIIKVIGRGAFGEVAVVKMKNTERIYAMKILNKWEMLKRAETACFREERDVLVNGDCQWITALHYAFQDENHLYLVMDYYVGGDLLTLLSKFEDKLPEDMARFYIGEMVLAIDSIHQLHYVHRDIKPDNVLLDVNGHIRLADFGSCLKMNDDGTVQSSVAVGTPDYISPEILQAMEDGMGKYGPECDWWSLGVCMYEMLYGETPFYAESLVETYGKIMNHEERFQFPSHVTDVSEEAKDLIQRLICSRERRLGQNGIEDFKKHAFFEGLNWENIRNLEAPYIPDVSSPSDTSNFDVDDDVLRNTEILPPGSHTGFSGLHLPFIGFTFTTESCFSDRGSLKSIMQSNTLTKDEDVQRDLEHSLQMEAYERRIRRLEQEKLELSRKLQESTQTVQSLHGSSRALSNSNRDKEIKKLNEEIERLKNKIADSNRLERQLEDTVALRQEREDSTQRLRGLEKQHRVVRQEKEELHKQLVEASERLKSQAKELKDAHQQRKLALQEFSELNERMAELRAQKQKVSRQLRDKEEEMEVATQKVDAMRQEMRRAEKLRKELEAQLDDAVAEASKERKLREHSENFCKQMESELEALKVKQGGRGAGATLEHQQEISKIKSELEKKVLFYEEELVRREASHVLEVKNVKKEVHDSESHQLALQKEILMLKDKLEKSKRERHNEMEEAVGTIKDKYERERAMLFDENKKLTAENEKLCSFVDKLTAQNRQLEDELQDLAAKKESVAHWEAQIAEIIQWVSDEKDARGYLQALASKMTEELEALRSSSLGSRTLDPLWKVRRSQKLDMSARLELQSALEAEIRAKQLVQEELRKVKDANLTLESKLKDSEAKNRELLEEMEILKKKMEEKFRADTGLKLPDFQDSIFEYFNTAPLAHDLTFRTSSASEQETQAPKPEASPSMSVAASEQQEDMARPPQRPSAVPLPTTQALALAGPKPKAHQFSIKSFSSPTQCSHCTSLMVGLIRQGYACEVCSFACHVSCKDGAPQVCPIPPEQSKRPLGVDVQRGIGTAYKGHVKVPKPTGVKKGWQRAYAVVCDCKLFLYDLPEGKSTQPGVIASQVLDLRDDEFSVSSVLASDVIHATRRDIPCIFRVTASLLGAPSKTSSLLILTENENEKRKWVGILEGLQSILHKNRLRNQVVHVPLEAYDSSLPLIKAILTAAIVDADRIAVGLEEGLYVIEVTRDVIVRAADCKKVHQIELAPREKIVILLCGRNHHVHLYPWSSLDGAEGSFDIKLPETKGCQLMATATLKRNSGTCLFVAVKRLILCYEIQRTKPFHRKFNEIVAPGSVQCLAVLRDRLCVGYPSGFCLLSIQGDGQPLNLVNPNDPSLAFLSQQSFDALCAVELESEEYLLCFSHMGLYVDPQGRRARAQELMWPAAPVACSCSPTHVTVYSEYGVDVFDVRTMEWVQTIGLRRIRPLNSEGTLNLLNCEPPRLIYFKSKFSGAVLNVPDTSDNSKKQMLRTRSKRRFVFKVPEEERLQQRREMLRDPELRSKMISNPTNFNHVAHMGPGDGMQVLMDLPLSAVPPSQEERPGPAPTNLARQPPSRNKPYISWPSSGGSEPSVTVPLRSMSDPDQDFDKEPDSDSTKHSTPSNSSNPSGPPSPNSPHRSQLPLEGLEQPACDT
UniProt Q96L34, sequence (whole entry, looked up): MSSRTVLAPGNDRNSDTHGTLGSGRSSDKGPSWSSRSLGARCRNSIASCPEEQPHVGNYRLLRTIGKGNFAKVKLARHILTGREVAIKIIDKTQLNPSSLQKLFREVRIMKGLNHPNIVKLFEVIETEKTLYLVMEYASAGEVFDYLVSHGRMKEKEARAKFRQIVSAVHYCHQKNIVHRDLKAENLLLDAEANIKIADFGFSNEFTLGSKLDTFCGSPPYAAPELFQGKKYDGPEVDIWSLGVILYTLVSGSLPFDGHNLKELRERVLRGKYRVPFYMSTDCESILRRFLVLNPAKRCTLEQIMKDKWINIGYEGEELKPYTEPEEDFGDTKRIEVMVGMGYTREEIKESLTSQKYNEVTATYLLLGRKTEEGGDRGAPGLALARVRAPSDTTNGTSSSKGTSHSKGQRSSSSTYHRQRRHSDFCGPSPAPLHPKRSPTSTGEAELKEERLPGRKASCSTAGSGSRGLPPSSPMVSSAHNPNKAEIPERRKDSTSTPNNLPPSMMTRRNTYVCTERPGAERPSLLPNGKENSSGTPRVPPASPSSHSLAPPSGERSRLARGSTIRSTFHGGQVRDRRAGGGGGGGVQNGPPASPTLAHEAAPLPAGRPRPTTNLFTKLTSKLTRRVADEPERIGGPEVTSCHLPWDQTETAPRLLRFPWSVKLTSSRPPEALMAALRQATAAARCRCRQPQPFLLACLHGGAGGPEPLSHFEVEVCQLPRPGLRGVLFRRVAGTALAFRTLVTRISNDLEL

Block 1 — organism: Plasmodium berghei; mode: inhibitor; cell line: Huh-7; strain: liver stage; tested at: 10 µM; time: 24 h; reference: untreated control; measurement: infection rate
Structure (SMILES) = CC#C[C@]1(O)CC[C@H]2[C@@H]3CCC4=CC(=O)CCC4=C3[C@@H](c3ccc(N(C)C)cc3)C[C@@]21C; result = 86.4%
Structure (SMILES) = O=C(NCC1CCCCN1)c1cc(OCC(F)(F)F)ccc1OCC(F)(F)F (stereo not shown); result = 153%
Structure (SMILES) = CCN(CC)CCNc1ccc(CO)c2sc3ccccc3c(=O)c12; result = 54.7%
Structure (SMILES) = Cc1ccc(C)c(OCCCC(C)(C)C(=O)O)c1; result = 122%
Structure (SMILES) = COc1ccccc1OCC(O)COC(N)=O (stereo not shown); result = 100%
Structure (SMILES) = CN1CCC(=C2c3ccccc3CC(=O)c3sccc32)CC1; result = 74.5%
Structure (SMILES) = Cc1ccccc1N1C(=O)c2cc(S(N)(=O)=O)c(Cl)cc2NC1C (stereo not shown); result = 93.8%
Structure (SMILES) = C[C@](N)(Cc1ccc(O)c(O)c1)C(=O)O; result = 85.1%

Block 2 — effect on: enzyme activity; mode: inhibitor; tested at: 10 µM; measurement: inhibition
Target: Calcium/calmodulin-dependent protein kinase type II subunit alpha (CAMK2A, Homo sapiens, UniProt Q9UQM7)
UniProt Q9UQM7, sequence (whole entry, looked up): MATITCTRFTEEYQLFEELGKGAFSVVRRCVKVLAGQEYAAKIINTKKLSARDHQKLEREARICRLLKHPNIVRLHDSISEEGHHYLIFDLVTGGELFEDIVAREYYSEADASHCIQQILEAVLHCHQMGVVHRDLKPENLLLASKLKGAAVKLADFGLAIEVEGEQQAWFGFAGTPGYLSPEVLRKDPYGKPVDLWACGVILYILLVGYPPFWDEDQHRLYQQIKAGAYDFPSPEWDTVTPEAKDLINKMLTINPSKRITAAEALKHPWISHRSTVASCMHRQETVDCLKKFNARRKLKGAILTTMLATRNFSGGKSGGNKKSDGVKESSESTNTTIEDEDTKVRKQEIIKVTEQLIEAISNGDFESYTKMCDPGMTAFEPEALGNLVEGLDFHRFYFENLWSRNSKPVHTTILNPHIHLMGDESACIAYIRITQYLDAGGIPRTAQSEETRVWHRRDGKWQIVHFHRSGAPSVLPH
Compound = CC(COc1ccccc1)N(CCCl)Cc1ccccc1 (stereo not shown); result = -6%
Compound = C=C1C(=O)O[C@@]23[C@H]1CC[C@@H](C)[C@@H]2CC[C@@]1(C)O[C@@H]31; result = 39%
Compound = C[C@H](CC[C@@]1(O)O[C@H]2C[C@H]3[C@@H]4CC[C@@H]5C[C@@H](O[C@@H]6O[C@H](CO)[C@@H](O)[C@H](O)[C@H]6O[C@@H]6O[C@H](CO)[C@@H](O)[C@H](O)[C@H]6O)CC[C@]5(C)[C@H]4CC[C@]3(C)[C@H]2[C@@H]1C)CO[C@@H]1O[C@H](CO)[C@@H](O)[C@H](O)[C@H]1O; result = -9%
Compound = COc1cc([C@@H]2c3cc4c(cc3[C@@H](O[C@@H]3O[C@@H]5CO[C@@H](C)O[C@H]5[C@H](O)[C@H]3O)[C@H]3COC(=O)[C@H]23)OCO4)cc(OC)c1O; result = 0%

Block 3 — cell line: mouse MPNST tumor cells; technique: high-content nuclear imaging; refers to: cell number; tested at: 10 µM; time: 12 h; notes: mean of 2 replicates; reference: plate mean; direction: higher = more cells; measurement: nuclei count
SMILES = CS(=O)(=O)c1ccc([C@@H](O)[C@@H](CO)NC(=O)C(Cl)Cl)cc1; result = 2.68 z-score
SMILES = COC(=O)C1=C(C)NC(C)=C([N+](=O)[O-])[C@H]1c1ccccc1C(F)(F)F; result = 0.828 z-score
SMILES = CCOC(=O)c1ncc2[nH]c3cccc(OC(C)C)c3c2c1C; result = 3.03 z-score
SMILES = S=C(NCCCc1cnc[nH]1)NCCCN(Cc1ccc(Cl)c(Cl)c1)c1ccc(Br)cn1; result = -6.11 z-score
SMILES = CCc1cccc2c3c([nH]c12)C(CC)(CC(=O)O)OCC3 (stereo not shown); result = 0.081 z-score
SMILES = CCCCC(CC)CN1CN(CC(CC)CCCC)CC(C)(N)C1 (stereo not shown); result = -0.279 z-score
SMILES = COc1cc(OC)c(C(=O)CCCN2CCCC2)c(OC)c1; result = -0.382 z-score

Block 4 — effect on: enzyme activity; mode: inhibitor; tested at: 0.5 µM; reference: control; measurement: remaining activity
Structure (SMILES): O=C(NC(NC(=S)Nc1ccc(F)c([N+](=O)[O-])c1)C(Cl)(Cl)Cl)C(c1ccccc1)c1ccccc1 (stereo not shown)
target = MARK2 (Homo sapiens, UniProt Q7KZI7); result = 92.3%
target = TXK (Homo sapiens, UniProt P42681); result = 108%
target = MARK4 (Homo sapiens, UniProt Q96L34); result = 104%
target = MAP2K1 (Homo sapiens, UniProt Q02750); result = 95.1%
target = MAPK1 (Homo sapiens, UniProt P28482); result = 97.6%
target = AKT2 (Homo sapiens, UniProt P31751); result = 91.6%
target = Cyclin-dependent kinase 9, with cyclin K (CDK9, Homo sapiens, UniProt P50750); result = 110%
target = DDR2 (Homo sapiens, UniProt Q16832); result = 96.4%
target = MET (Homo sapiens, UniProt P08581); result = 101%
target = PNCK (Homo sapiens, UniProt Q6P2M8); result = 115%
target = MINK1 (Homo sapiens, UniProt Q8N4C8); result = 110%
target = CDC42BPB (Homo sapiens, UniProt Q9Y5S2); result = 97.2%
target = NEK3 (Homo sapiens, UniProt P51956); result = 96.2%
target = RPS6KA4 (Homo sapiens, UniProt O75676); result = 92.7%
target = CLK3 (Homo sapiens, UniProt P49761); result = 124%
target = CLK4 (Homo sapiens, UniProt Q9HAZ1); result = 105%
target = Cyclin-dependent kinase 1, with cyclin A (CDK1, Homo sapiens, UniProt P06493); result = 101%
target = KDR (Homo sapiens, UniProt P35968); result = 92.5%
target = GRK4 (Homo sapiens, UniProt P32298); result = 101%
target = CAMK4 (Homo sapiens, UniProt Q16566); result = 98.5%
target = MAPK14 (Homo sapiens, UniProt Q16539); result = 101%
target = PAK3 (Homo sapiens, UniProt O75914); result = 91.9%
target = ROCK1 (Homo sapiens, UniProt Q13464); result = 99.8%
target = PRKG2 (Homo sapiens, UniProt Q13237); result = 96.7%

Block 5 — effect on: cell-free assay; technique: competition with immobilised ligand; tested at: 1 µM; measurement: remaining binding
SMILES: CCCCN(CCCC)C(=O)CN1C[C@@H](c2cc(OC)c3c(c2)OCO3)[C@H](C(=O)O)[C@H]1CC(C)(C)CCC
target = PIK3CA (Homo sapiens, UniProt P42336, Q546K); result = 100%
target = PTK6 (Homo sapiens, UniProt Q13882); result = 100%
target = EPHA8 (Homo sapiens, UniProt P29322); result = 99.9%
target = PLK4 (Homo sapiens, UniProt O00444); result = 84.1%
target = Non-receptor tyrosine-protein kinase TYK2, JH1 (TYK2, Homo sapiens, UniProt P29597); result = 100%
target = KIT (Homo sapiens, UniProt P10721, V559D/V654A); result = 100%
target = RPS6KB1 (Homo sapiens, UniProt P23443); result = 99%
target = Tyrosine-protein kinase ABL1, non-phosphorylated (ABL1, Homo sapiens, UniProt P00519, T315I); result = 100%
target = CDK7 (Homo sapiens, UniProt P50613); result = 89.5%

Some of these lines once more (block 1):
Structure (SMILES) = CCN(CC)CCNc1ccc(CO)c2sc3ccccc3c(=O)c12; result = 54.7%
Structure (SMILES) = CN1CCC(=C2c3ccccc3CC(=O)c3sccc32)CC1; result = 74.5%
Structure (SMILES) = CC#C[C@]1(O)CC[C@H]2[C@@H]3CCC4=CC(=O)CCC4=C3[C@@H](c3ccc(N(C)C)cc3)C[C@@]21C; result = 86.4%
